Published values gathered from unrelated publications.
Values joined by “and” are separate records of one study, mostly repeats; a detail may differ. ± gives the spread as reported. Ends that are not written are not given here.
UniProt Q62976, sequence (whole entry, looked up): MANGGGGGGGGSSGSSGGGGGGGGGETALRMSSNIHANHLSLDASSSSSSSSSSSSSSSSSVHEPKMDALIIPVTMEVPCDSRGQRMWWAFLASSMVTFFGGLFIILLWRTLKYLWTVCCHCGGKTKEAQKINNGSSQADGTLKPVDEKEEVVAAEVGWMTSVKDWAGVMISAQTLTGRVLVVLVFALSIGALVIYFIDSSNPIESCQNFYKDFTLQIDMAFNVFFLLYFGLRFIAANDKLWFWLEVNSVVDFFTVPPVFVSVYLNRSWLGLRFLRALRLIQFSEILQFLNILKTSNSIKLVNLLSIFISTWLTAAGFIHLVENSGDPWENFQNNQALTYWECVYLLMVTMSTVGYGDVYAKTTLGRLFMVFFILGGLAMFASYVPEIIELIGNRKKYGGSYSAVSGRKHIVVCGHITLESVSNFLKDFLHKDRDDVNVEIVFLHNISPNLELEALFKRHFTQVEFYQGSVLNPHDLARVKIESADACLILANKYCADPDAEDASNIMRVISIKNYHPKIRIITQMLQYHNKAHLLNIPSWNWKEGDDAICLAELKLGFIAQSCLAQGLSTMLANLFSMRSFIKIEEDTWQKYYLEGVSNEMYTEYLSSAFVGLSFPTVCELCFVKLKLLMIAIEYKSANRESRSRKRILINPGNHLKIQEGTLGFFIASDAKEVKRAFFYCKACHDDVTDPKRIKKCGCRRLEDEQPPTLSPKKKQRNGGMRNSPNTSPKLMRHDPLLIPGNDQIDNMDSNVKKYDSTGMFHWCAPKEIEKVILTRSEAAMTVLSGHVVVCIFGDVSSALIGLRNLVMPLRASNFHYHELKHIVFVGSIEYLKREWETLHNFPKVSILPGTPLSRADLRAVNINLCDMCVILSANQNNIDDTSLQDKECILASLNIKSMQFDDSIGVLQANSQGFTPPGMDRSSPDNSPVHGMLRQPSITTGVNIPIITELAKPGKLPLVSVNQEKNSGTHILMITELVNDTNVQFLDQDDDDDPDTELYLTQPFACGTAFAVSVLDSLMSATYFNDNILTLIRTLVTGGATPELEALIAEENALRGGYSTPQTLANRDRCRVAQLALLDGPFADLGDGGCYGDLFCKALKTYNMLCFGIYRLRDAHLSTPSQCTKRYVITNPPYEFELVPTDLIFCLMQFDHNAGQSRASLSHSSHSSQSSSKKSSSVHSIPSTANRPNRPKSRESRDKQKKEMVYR

Molecule = NC(=O)CCNC(=O)c1ccccc1S; target or system = HIV-1; assay = viral replication; test system = human PBMC, subtype E CMU02, CCR5-tropic clinical isolate; measurement = EC50; result = 3280 ± 1470 nM
Molecule = COc1ccccc1-c1ccc(CN2CCC(NC(=O)Cc3ccc(F)cc3)C2)cc1 (stereo not drawn); target or system = SARS-CoV-2; assay = cytopathic effect; test system = USA_WA1/2020; setting = round 1, 5-point; measurement = efficacy; result = 99%
Molecule = C/C=C1\NC(=O)C(C(C)O)NC(=O)C(CCCN)NC(=O)C(CCO)NC(=O)CNC(=O)C(CCN)NC(=O)C(NC(=O)CC(O)CCCCCCCCCCC)COC(=O)C(C(O)CCl)NC(=O)C(C(O)C(=O)O)NC1=O (stereo not drawn); assay = calcein leakage; test system = DOPC/DOPG/CHOL liposomes; setting = concentration not given, added: 20 wt% PEG-8000; measurement = fusion time constant; result = 32 ± 20 min
Molecule = CC1CCN(CCCNC(=O)c2cc(Sc3ccc(F)cc3)nc3ccccc23)CC1; target or system = SARS-CoV-2; assay = cytopathic effect; test system = USA_WA1/2020; setting = retest 8-point; measurement = maximum response; result = 84.4%
Molecule = FLCWHTNCYDYCIPY; target or system = human CD4 T cells; assay = AIM; test system = peptide; measurement = responding donors; result = 7%
Molecule = CCCC(=O)OCSc1ccccc1C(=O)NCCC(N)=O; target or system = HIV-1; assay = viral replication; test system = human PBMC, subtype F 93BR029, CCR5-tropic clinical isolate; measurement = EC50; result = 3450 ± 1900 nM
Molecule = QPYRVVVL; assay = AIM; test system = peptide, CD8+ T cells from PBMC, human donors; setting = HLA-B*08:01 restricted, unit not given; how to read = relative to: positive over tested donors; measurement = frequency of responding donors; result = 60
Molecule = CCc1c(C(=O)C(N)=O)c2c(OCC(=O)O)cccc2n1Cc1ccccc1; target or system = C2C12; setting = 10 µM, added: MH venom; how to read = relative to: venom alone; measurement = viability difference; result = 12.1%
Molecule = Cc1cc(/C=C/C#N)cc(C)c1Nc1nc(Nc2ccc(/C=C/C#N)cc2)ncc1N; target or system = HIV-1; assay = viral replication, single-round infection; test system = RT mutant G190A; measurement = EC50; result = 0.7 ± 0.1 nM
Molecule = RYLALYNKYKYFSGA; target or system = human CD4 T cells; assay = AIM; test system = peptide; measurement = responding donors; result = 15%
Molecule = O=C(NCc1ccccc1Cl)C1CCCN(Cc2cccc(-c3ccc(F)cc3F)c2)C1 (stereo not drawn); target or system = SARS-CoV-2; assay = cytopathic effect; test system = USA_WA1/2020; setting = retest, 8-point, duplicates; measurement = efficacy; result = 37.3%
Molecule = NLVIGFLFLTWICLL; target or system = human CD4 T cells; assay = AIM; test system = peptide; measurement = responding donors; result = 7%
Molecule = Cc1nc2n(n1)CC(=O)N[C@@H](C(C)C)CN(C(=O)c1ccccn1)CC(=O)N[C@@H](CC(C)C)c1nc(cs1)C(=O)N[C@H]2Cc1ccccc1; target or system = Lassa mammarenavirus; assay = viral replication; test system = Huh-7; setting = 10 µM, 72 h; measurement = remaining activity; result = 75%
Molecule = FDEDDSEPVL; assay = AIM; test system = peptide, CD8+ T cells from PBMC, human donors; setting = HLA-B*40:01 restricted, unit not given; how to read = relative to: positive over tested donors; measurement = frequency of responding donors; result = 40
Molecule = COCCCNC(=O)C1CCN(Cc2cc3ccccc3n2Cc2cccc(Cl)c2)CC1; target or system = SARS-CoV-2; assay = cytopathic effect; test system = USA_WA1/2020; setting = round 2, 5-point; measurement = maximum response; result = 44.9%
Molecule = Cc1cc(O)c2c(c1)C(=O)c1cc(O)cc(O)c1C2=O; assay = viral replication; test system = SARS-CoV-2 trVLP system; setting = 100 µM; measurement = inhibition; result = > 90%
Molecule = LPYGK; assay = DSC; test system = peptide, 7/3 SOPC/cholesterol bilayers; setting = 15 mol%, pH 7.40, SOPC chain melting transition; measurement = transition enthalpy; result = 1.3 kcal/mol
Molecule = Cc1cc(/C=C/C#N)cc(C)c1Nc1nc(Nc2ccc3cc(C#N)ccc3c2)ncc1N; target or system = HIV-1; assay = viral replication, single-round infection; test system = RT mutant D67E; measurement = EC50; result = > 7 nM
Molecule = CC(Nc1nc(N2CCN(CCN)CC2)nc2ccccc12)c1ccccc1 (stereo not drawn); target or system = SARS-CoV-2; assay = cytopathic effect; test system = USA_WA1/2020; measurement = AC50; result = 7940 nM
Molecule = Cc1ccsc1CNc1ccc(C(=O)N2CCCC(Cn3ccnc3C)C2)cc1 (stereo not drawn); target or system = Lassa mammarenavirus; assay = viral replication; test system = Huh-7; setting = 10 µM, 72 h; measurement = remaining activity; result = 67%
Molecule = COP(=S)(OC)Oc1ccc([N+](=O)[O-])c(C)c1; target or system = rat CYP1A; assay = ethoxyresorufin O-deethylation; test system = liver microsomes; setting = concentration not given; measurement = Vmax; result = 0.32 ± 0.04 nmol/min/mg protein
Molecule = Cn1c(Cn2ccc(C(F)(F)F)c(Oc3cc(Cl)cc(C#N)c3)c2=O)n[nH]c1=O; target or system = HIV-1; assay = viral replication, single-round infection; test system = RT mutant V106A/F227L; measurement = EC50; result = > 100 nM
Molecule = QPLRKLCILHRNPGRCYQKIPAFYYNQKKKQCEGFTWSGCGGNSNRFKTIEECRRTCIRK (dendrotoxin I; ends and bridges not checked; cysteine pairing not given here; sequence looked up); target or system = Kcnma1 (Rattus norvegicus, UniProt Q62976); assay = blocker, planar bilayer single channel; setting = added: BP; how to read = relative to: BP-unoccupied channel; measurement = association rate decrease; result = 1.3 fold
Molecule = YREAACCHLAKALND; target or system = human CD4 T cells; assay = AIM; test system = peptide; measurement = responding donors; result = 8%
Molecule = COc1ccc2cc3[n+](cc2c1OC)CCc1cc2c(cc1-3)OCO2; target or system = SARS-CoV-2 spike protein; test system = Vero C1008; setting = 2.5 µg/mL; measurement = inhibition; result = 80 ± 0.8%
Molecule = O=C1Nc2ccc(Cl)cc2[C@@](C#CC2CC2)(C(F)(F)F)O1; target or system = HIV-1; assay = viral replication, single-round infection; test system = RT mutant V106A/L234I; measurement = EC50; result = 0.3 ± 0.03 nM
Molecule = LNQLTGYKKPASREL; target or system = human CD4 T cells; assay = AIM; test system = peptide; measurement = responding donors; result = 8%
Molecule = CCOc1ncccc1CNc1cc(C)nc2c(C)c(C)nn12; target or system = Lassa mammarenavirus; assay = viral replication; test system = Huh-7; setting = 10 µM, 72 h; measurement = remaining activity; result = 60%
Molecule = Cc1cc(/C=C/C#N)cc(C)c1Nc1ccnc(Nc2ccc(C#N)cc2)n1; target or system = HIV-1; assay = viral replication, single-round infection; test system = RT mutant E138K/M184I; measurement = EC50; result = 1.1 ± 0.1 nM
Molecule = Nc1ncnc2c([C@@H]3N[C@H](CO)[C@@H](O)[C@H]3O)c[nH]c12; target or system = Marburg virus; assay = viral RNA in cell lysate; test system = HeLa, Musoke; setting = 12.5 µM, 1 h; measurement = inhibition; result = 93.9%
Molecule = Cc1cc(/C=C/C#N)cc(C)c1-n1cnc2cnc(Nc3ccc4cc(C#N)ccc4c3)nc21; target or system = HIV-1; assay = viral replication, single-round infection; test system = RT mutant P236L; measurement = EC50; result = ≤ 2.1 nM
Molecule = N#CC(C#N)=NNc1cccc(Cl)c1; target or system = Escherichia coli; assay = checkerboard; test system = tetracycline-resistant; setting = 21 µM, added: tetracycline; measurement = FIC index; result = 0.75
Molecule = ATSRTLSYYK; assay = AIM; test system = peptide, CD8+ T cells from PBMC, human donors; setting = HLA-A*30:01 restricted, unit not given; how to read = relative to: positive over tested donors; measurement = frequency of responding donors; result = 100
Molecule = CC(C)Nc1cc(-c2ccc3c(c2)OCO3)nc(N)n1; target or system = Lassa mammarenavirus; assay = viral replication; test system = Huh-7; setting = 10 µM, 72 h; measurement = remaining activity; result = 30%
Molecule = CNC(=O)[C@@H](NC(=O)[C@H](CC(C)C)[C@H](O)C(=O)NO)C(C)(C)C; target or system = Daboia russelii venom proteases (SVMP); assay = protease activity, inhibitor; test system = AP population; setting = 0.01 µM, added: azocasein substrate; how to read = relative to: venom alone; measurement = remaining activity; result = 100% and 96.9% and 98%
Molecule = CN1CCCC2(C1)CN(Cc1cccnc1)c1ccc(C(=O)NCC3CCCCC3)cc12 (stereo not drawn); target or system = SARS-CoV-2; assay = cytopathic effect; test system = USA_WA1/2020; setting = round 2, 5-point; measurement = efficacy; result = 89%
Molecule = Cc1cn([C@H]2C[C@H](N=[N+]=[N-])[C@@H](CO)O2)c(=O)[nH]c1=O; target or system = HIV-1; assay = viral replication; test system = human PBMC, subtype C 92BR025, CCR5-tropic clinical isolate; measurement = EC50; result = 5.16 ± 3.61 nM
Molecule = Oc1ccccc1-c1nc(-c2cccs2)c(-c2cccs2)[nH]1; target or system = SARS-CoV-2; assay = cytopathic effect; test system = USA_WA1/2020; setting = round 1, 5-point; measurement = maximum response; result = 48%
Molecule = O=C(CCC1CCN(Cc2ccccc2)CC1)c1ccc2c(c1)NCCCC2.O=C(O)/C=C/C(=O)O; target or system = HeLa; assay = Ebola VLP entry; measurement = maximal inhibition; result = 91%
Molecule = COCc1cc(N2CCCC(C(=O)c3ccc(Cl)cc3C)C2)ncn1 (stereo not drawn); target or system = Lassa mammarenavirus; assay = viral replication; test system = Huh-7; setting = 10 µM, 72 h; measurement = remaining activity; result = 54%
Molecule = COc1ccc(Nc2cc(C(=O)NCCCN(C)Cc3ccccc3)c3ccccc3n2)cc1; target or system = SARS-CoV-2; assay = cytopathic effect, cell-based CPE; test system = USA_WA1/2020; setting = round 2, 5-point dilution; measurement = AC50; result = 11200 nM
Molecule = insulin human; assay = item: ACHE mRNA; test system = uninfected mouse, brain; setting = i.p., dose not given; how to read = relative to: PBS; measurement = fold change; result = 0.99

A few entries again:
Molecule = CCc1c(C(=O)C(N)=O)c2c(OCC(=O)O)cccc2n1Cc1ccccc1; target or system = C2C12; setting = 10 µM, added: MH venom; how to read = relative to: venom alone; measurement = viability difference; result = 12.1%
Molecule = CC(Nc1nc(N2CCN(CCN)CC2)nc2ccccc12)c1ccccc1 (stereo not drawn); target or system = SARS-CoV-2; assay = cytopathic effect; test system = USA_WA1/2020; measurement = AC50; result = 7940 nM
Molecule = FLCWHTNCYDYCIPY; target or system = human CD4 T cells; assay = AIM; test system = peptide; measurement = responding donors; result = 7%
